Experimental data of several laboratories.
Numbers after ± are the reported error. Square brackets hold non-standard residues; d marks the D form. Where no end group is shown, it is not given here. Ends that are not written are not given here. No end group written: not given here. [ ]: non-standard residue; d: D form.
T1: NR1I2/RXRA (Homo sapiens); chain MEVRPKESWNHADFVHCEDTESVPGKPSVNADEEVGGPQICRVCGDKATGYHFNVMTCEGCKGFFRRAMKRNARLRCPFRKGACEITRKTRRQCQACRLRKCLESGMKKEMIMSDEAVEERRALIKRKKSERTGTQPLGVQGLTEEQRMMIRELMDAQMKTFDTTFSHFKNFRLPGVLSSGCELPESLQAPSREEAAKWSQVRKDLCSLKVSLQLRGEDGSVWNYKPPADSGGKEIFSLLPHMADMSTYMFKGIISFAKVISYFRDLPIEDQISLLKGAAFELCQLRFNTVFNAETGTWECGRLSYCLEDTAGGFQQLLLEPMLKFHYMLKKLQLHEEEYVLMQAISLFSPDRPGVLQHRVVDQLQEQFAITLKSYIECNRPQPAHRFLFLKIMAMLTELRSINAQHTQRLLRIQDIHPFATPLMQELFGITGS; chain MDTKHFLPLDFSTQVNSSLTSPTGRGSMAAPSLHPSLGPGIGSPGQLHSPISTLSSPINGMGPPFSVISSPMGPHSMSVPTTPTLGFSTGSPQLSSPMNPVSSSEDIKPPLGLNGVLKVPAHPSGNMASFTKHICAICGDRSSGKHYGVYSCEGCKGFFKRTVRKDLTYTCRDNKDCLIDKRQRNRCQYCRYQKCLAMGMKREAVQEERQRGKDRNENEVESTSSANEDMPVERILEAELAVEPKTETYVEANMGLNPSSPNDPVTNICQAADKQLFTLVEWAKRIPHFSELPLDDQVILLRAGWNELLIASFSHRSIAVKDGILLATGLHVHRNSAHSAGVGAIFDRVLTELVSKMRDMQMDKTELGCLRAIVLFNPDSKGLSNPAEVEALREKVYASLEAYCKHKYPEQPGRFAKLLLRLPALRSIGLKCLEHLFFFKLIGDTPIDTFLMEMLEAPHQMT
B1: RRP6 128-634 (Saccharomyces cerevisiae, UniProt Q12149); sequence looked up; chain RVEKPQLKFKSPIDNSESHPFIPLLKEKPNALKPLSESLRLVDDDENNPSHYPHPYEYEIDHQEYSPEILQIREEIPSKSWDDSVPIWVDTSTELESMLEDLKNTKEIAVDLEHHDYRSYYGIVCLMQISTRERDYLVDTLKLRENLHILNEVFTNPSIVKVFHGAFMDIIWLQRDLGLYVVGLFDTYHASKAIGLPRHSLAYLLENFANFKTSKKYQLADWRIRPLSKPMTAYARADTHFLLNIYDQLRNKLIESNKLAGVLYESRNVAKRRFEYSKYRPLTPSSEVYSPIEKESPWKILMYQYNIPPEREVLVRELYQWRDLIARRDDESPRFVMPNQLLAALVAYTPTDVIGVVSLTNGVTEHVRQNAKLLANLIRDALRNIKNTNEEATPIPSSETKADGILLETISVPQIRDVMERFSVLCNSNISKSRAKPVTNSSILLGKILPREEHDIAYSKDGLPNKVKTEDIRIRAQNFKSALANLEDIIFEIEKPLVVPVKLEEIK
B2: Nup98 732-880 (Mus musculus, UniProt Q6PFD9); sequence looked up; chain AGIVLTKVGYYTIPSMDDLAKITNEKGECIVSDFTIGRKGYGSIYFEGDVNLTNLNLDDIVHIRRKEVIVYVDDNQKPPVGEGLNRKAEVTLDGVWPTDKTSRCLIKSPDRLADINYEGRLEAVSRKQGAQFKEYRPETGSWVFKVSHF
B3: CYBA (Homo sapiens, UniProt P13498); chain MGQIEWAMWANEQALASGLILITGGIVATAGRFTQWYFGAYSIVAGVFVCLLEYPRGKRKKGSTMERWGQKYMTAVVKLFGPFTRNYYVRAVLHLLLSVPAGFLLATILGTACLAIASGIYLLAAVRGEQWTPIEPKPRERPQIGGTIKQPPSNPPPRPPAEARKKPSEEEAAVAAGGPPGGPQVNPIPVTDEVV
B4: PAC1 (Saccharomyces cerevisiae, UniProt P39946); dye-labeled SNAP tag; sequence looked up; chain MTNWQQQLPLTDTQKNELDKSVLRYLNWNYKQTVRHEHAQDYESVRHAIVTLSGFLLQESVDRQEFISNNDTSNESMVDIDELLLPKKWNSIVRLQKKIIELEQNTETLVSQIKDLNTQVSELAQFKPTTSNGTSAHNVLKWIPRNLPSCLINVESSVTSVKLHPNLPIVFVATDHGKLYAFDLFNYTIPLASLQSHTKAITSMDVLFTNYTNSSKKNYLVIVTASKDLQIHVFKWVSEECKFQQIRSLLGHEHIVSAVKIWQKNNDVHIASCSRDQTVKIWDFHNGWSLKTFQPHSQWVRSIDVLGDYIISGSHDTTLRLTHWPSGNGLSVGTGHEFPIEKVKFIHFIEDSPEIRFRTPSTDRYKNWGMQYCVSASRDRTIKIWEIPLPTLMAHRAPIPNPTDSNFRCVLTLKGHLSWVRDISIRGQYLFSCADDKSVRCWDLNTGQCLHVWEKLHTGFVNCLDLDVDFDSNVTPRQMMVTGGLDCKSNVFMR
B5: LAG3 cytoplasmic tail 475-525 (Homo sapiens); also: AF647 label in some assays, position not given here; chain {H2N-H2N-H2N-H2N-H2N}-RRQWRPRRFSALEQGIHPPQAQSKIEELEQEPEPEPEPEPEPEPEPEPEQLC
B6: BAK1 26-225 F60A/H61A (Arabidopsis thaliana, UniProt Q94F62); sequence looked up; chain NAEGDALSALKNSLADPNKVLQSWDATLVTPCTWAAVTCNSDNSVTRVDLGNANLSGQLVMQLGQLPNLQYLELYSNNITGTIPEQLGNLTELVSLDLYLNNLSGPIPSTLGRLKKLRFLRLNNNSLSGEIPRSLTAVLTLQVLDLSNNPLTGDIPVNGSFSLFTPISFANTKLTPLPASPPPPISPTPPSPAGSNRITG
B7: TNNC2 (Gallus gallus, UniProt P02588); sequence looked up; chain MASMTDQQAEARAFLSEEMIAEFKAAFDMFDADGGGDISTKELGTVMRMLGQNPTKEELDAIIEEVDEDGSGTIDFEEFLVMMVRQMKEDAKGKSEEELANCFRIFDKNADGFIDIEELGEILRATGEHVTEEDIEDLMKDSDKNNDGRIDFDEFLKMMEGVQ
Sequence of UniProt P40368 (whole entry, unmodified, looked up): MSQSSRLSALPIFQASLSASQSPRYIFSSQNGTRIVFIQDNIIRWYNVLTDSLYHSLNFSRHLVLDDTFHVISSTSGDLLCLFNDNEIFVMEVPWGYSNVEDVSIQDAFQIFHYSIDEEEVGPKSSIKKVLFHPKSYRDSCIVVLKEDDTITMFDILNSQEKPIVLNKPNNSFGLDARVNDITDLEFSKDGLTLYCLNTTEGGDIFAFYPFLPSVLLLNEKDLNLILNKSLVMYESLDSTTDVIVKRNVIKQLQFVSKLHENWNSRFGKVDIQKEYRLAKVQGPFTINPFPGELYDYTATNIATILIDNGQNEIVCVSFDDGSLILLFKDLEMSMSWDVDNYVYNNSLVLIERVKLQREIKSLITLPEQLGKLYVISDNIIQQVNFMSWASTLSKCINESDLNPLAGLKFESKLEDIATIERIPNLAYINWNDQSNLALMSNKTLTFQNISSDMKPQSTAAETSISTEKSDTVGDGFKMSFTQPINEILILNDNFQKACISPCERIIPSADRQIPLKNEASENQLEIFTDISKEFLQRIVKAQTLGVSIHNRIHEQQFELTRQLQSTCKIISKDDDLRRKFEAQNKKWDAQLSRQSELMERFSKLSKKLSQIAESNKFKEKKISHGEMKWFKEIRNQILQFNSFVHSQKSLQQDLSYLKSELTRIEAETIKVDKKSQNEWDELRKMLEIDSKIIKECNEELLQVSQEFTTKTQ
Sequence of UniProt Q9UQ84 (whole entry, looked up): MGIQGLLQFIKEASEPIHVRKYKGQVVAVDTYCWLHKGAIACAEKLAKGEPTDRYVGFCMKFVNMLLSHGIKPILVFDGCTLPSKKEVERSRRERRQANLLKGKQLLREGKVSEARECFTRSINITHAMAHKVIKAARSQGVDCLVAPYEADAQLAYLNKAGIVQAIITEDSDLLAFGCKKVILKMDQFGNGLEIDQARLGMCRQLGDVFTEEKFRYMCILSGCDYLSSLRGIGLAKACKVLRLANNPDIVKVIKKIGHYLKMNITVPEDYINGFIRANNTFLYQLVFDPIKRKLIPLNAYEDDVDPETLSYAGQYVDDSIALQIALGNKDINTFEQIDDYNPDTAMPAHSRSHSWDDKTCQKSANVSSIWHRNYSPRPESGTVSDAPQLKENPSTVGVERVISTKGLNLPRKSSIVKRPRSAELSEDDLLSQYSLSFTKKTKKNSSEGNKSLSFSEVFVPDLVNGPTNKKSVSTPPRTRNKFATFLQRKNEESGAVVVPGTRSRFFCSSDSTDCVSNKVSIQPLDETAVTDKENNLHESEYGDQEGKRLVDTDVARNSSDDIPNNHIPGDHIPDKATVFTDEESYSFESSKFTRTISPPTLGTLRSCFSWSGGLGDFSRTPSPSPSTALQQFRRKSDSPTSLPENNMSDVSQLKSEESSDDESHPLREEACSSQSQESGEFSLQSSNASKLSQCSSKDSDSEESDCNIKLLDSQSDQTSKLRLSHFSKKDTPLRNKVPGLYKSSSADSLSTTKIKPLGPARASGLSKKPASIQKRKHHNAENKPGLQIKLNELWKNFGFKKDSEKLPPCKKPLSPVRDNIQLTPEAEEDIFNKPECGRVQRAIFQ
Sequence of UniProt P48787 (whole entry, unmodified, looked up): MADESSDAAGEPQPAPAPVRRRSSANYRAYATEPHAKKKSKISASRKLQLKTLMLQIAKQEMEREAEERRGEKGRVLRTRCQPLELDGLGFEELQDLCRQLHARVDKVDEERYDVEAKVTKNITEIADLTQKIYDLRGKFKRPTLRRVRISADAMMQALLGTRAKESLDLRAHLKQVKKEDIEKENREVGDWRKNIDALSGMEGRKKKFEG
Sequence of UniProt Q12099 (whole entry, looked up): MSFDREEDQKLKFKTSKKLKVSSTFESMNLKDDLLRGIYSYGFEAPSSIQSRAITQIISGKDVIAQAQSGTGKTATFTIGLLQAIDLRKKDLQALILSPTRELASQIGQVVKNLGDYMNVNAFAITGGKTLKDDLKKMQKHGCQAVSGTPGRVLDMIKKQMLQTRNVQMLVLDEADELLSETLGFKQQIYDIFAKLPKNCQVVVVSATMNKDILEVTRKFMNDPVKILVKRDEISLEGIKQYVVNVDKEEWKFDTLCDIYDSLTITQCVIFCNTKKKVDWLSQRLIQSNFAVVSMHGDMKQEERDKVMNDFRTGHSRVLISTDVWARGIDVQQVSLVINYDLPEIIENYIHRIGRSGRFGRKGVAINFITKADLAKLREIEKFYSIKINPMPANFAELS
Sequence of UniProt Q02410 (whole entry, unmodified, looked up): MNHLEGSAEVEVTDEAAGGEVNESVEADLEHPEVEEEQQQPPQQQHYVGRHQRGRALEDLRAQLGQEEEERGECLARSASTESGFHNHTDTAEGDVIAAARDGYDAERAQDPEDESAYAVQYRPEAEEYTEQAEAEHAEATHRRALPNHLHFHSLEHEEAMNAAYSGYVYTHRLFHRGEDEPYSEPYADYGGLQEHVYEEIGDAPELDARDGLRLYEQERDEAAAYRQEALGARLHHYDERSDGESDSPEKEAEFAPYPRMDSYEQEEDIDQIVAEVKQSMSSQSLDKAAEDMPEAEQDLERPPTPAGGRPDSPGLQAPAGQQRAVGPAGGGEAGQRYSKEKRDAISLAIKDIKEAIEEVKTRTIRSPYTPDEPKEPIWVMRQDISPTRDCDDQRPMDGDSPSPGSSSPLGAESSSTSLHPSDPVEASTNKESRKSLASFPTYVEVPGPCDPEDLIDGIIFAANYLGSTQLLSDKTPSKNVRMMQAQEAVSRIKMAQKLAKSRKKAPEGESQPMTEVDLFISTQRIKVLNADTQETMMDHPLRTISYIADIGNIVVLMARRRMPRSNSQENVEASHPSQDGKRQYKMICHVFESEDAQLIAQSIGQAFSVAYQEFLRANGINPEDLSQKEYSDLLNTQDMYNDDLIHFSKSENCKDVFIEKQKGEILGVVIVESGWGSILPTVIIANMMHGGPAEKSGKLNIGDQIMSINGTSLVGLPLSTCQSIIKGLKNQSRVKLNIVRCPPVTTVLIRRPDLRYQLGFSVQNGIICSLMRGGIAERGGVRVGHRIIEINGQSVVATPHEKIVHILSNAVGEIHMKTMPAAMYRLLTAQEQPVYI
Sequence of UniProt P46948 (whole entry, looked up): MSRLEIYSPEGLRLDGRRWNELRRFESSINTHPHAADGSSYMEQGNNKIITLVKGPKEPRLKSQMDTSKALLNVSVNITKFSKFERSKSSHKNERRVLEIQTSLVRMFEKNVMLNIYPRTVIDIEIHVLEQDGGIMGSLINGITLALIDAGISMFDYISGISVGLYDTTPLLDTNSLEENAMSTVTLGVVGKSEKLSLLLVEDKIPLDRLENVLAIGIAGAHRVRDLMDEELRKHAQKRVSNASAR
Sequence of UniProt Q99767 (whole entry, unmodified, looked up): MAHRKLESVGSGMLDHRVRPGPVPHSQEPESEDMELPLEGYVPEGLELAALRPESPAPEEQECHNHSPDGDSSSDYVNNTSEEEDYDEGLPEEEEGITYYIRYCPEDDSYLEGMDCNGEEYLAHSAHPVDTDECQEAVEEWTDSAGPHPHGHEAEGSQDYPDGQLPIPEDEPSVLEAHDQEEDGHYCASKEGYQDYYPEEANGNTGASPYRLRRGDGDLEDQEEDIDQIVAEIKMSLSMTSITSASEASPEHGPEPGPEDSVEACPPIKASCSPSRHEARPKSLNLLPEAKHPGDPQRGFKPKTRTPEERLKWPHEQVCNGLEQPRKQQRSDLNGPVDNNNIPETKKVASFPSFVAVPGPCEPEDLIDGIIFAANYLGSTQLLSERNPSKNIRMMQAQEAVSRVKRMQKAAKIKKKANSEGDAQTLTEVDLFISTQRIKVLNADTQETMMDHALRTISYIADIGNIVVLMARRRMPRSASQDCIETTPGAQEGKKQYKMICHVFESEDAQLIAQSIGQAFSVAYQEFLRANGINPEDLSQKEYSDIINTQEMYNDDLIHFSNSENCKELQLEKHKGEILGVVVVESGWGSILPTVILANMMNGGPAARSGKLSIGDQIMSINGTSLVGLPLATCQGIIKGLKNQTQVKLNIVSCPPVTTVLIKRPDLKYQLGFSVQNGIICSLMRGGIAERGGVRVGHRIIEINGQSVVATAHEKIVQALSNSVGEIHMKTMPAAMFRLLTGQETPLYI
Sequence of UniProt P04839 (whole entry, looked up): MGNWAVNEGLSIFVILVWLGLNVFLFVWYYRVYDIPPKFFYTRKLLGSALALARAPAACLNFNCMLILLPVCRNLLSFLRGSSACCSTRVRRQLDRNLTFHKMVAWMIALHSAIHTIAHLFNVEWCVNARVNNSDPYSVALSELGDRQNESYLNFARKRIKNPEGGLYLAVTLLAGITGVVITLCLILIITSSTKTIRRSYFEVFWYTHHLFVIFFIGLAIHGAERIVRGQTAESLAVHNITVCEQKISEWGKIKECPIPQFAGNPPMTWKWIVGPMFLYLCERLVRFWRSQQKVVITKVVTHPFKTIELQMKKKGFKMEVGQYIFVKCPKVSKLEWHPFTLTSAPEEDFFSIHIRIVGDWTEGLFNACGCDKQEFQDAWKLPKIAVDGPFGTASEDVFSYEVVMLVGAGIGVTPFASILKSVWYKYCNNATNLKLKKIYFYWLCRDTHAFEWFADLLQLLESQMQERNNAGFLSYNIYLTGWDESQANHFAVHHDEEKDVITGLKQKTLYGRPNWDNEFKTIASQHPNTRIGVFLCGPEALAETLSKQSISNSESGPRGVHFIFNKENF
Sequence of UniProt Q01130 (whole entry, looked up): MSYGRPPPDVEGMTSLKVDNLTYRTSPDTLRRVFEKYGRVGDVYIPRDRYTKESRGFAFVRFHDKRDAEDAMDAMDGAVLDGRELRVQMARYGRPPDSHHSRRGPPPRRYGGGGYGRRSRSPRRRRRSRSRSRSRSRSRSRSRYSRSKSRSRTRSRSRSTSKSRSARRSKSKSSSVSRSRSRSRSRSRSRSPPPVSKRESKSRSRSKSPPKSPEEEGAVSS

`Ac-DNCQYVYNV-NH2 (N-acetyl, C-amide)`: inhibition “inhibited” (mouse neutrophil elastase; enzyme activity; peptide, neutrophil lysate; 1.25 or 2.5 mM, pH 8.0, 37 °C).
`EXO1 (Homo sapiens, UniProt Q9UQ84)`: binding “binds” (CTC1/STN1/TEN1 2-1217 K290E/R292E/R295E; pull-down).
`B1 (RRP6 128-634)`: binding “binds” (Exo9 core (Saccharomyces cerevisiae, UniProt P46948); SEC).
`GAGUUGAGUUGAGUUGAGUUGAGUUGAGUUGAGUUGAGUUGAGUUGAGUUGAGUU (ssRNA; single strand)` has a Kd of 130 ± 20 nM (mtrB full length assumed K37A (Bacillus subtilis, UniProt P19466); filter binding; added: L-tryptophan 1 mM).
For `V[Aib]IA (Aib2; Aib = CC(C)(N)C(=O)O)`, the cell viability was 76.6% (PC-12; protection from Aβ1–42 toxicity, MTT; concentration not given, 6 h, Aβ to peptide ratio 1:5, added: Aβ1–42 2 µM; reference: untreated cells).
For `UGT1A9 (Homo sapiens, UniProt O60656)`, the Vmax/Km was 29000 µL/min/mg (O=c1c(O)c(-c2cccc(O)c2)oc2ccccc12; steady-state kinetics; pH 7.4, 37 °C).
`B2 (Nup98 732-880)`: binding “binds” (NUP82 1-452 del172-176/C396S (Saccharomyces cerevisiae, UniProt P40368); SEC).
For `FAL1 (Saccharomyces cerevisiae, UniProt Q12099)`, binding read “binds” (SGD1 (Saccharomyces cerevisiae, UniProt Q06132); pull-down).
`GCTGAATGAACTTGCTGACCCTCTGCTTTC (dsDNA)` has a Ki of 94.4 ± 4 nM (T1, NR1I2/RXRA (Homo sapiens); fluorescence anisotropy competition; double-stranded DNA, one strand shown; added: DR3 FAM).
For `B3 (CYBA)`, binding read “binds” (CYBB mature, N-glycans, two hemes (Homo sapiens, UniProt P04839); cryo-EM).
For `RBM8A fragment (Homo sapiens) (sequence not shown)`, binding read “binds” (DCP2 (Homo sapiens, UniProt Q8IU60); pull-down).
`[dP]VIA (D-Pro1)` has a cell viability of 71.2% (PC-12; protection from Aβ1–42 toxicity, MTT; concentration not given, 6 h, Aβ to peptide ratio 1:10, added: Aβ1–42 2 µM; reference: untreated cells).
For `TGAACTTGCTGACCCTCTGCTTTC (dsDNA)`, the Ki was 131 ± 6.6 nM (T1, NR1I2/RXRA (Homo sapiens); fluorescence anisotropy competition; double-stranded DNA, one strand shown; added: DR3 FAM).
`B4 (PAC1)` — result for binding: “binds” (DYN1/DYN2/DYN3/PAC11 D2868K (Saccharomyces cerevisiae); pull-down).
The Ki of `UUUCAGCUCCGGUCACGCUC (ssRNA; m5C at position 10)` is reported as 22.9 nM (SRSF2 1-115 (Homo sapiens, UniProt Q01130); NanoBRET competition; apparent, not purified).
`GRRYVDMTSAFDFMLN (POL1 1453-1468 I1462A (Saccharomyces cerevisiae, UniProt P13382); sequence looked up)` — result for binding: “binds” (PRI1/PRI2 PRI1 1-409, PRI2 49-513 del382-384 (Saccharomyces cerevisiae); pull-down; peptide; 2 h, pH 7.0, 4 °C).
`DIS3 (Saccharomyces cerevisiae, UniProt Q08162)`: binding “binds” (RRP45/SKI6/RRP43/RRP46/RRP42/MTR3/RRP4/RRP40/CSL4 Exo9 core 1-305 (Saccharomyces cerevisiae); reconstitution, SDS-PAGE).
`Insulin human` has a concentration of 11.8 ± 4.5 pg/mg tissue (ELISA; rat, hippocampus; intranasal, 20 µg per nostril, 360 min).
`RAD51 (Homo sapiens, UniProt Q06609)`: binding “binds” (BRCA1/BARD1 F133A/D135A/A136E (Homo sapiens); pull-down; 5 µM, 30 min, 4 °C, KCl 150 mM, added: Flag-BRCA1-BARD1 0.5 µM).
`fluorescein-SPT[pS]PSY[pS]PTS (POLR2A CTD peptide consensus heptads, 11-aa; N-fluorescein, pS4, pS8; fluorescein = fluorescein label (fluorescent) on the peptide N-terminus; pS = N[C@@H](COP(=O)(O)O)C(=O)O)`: binding “binds” (Rngtt 227-567 F367N (Mus musculus, UniProt O55236); fluorescence polarisation; peptide; pH 7.0, 23 °C).
`{TAMRA}-NNGQNGYENPTYKFFEQMQN (APP peptide residues 754-770 (Homo sapiens); N-terminal TAMRA)`: binding “binds” (APBA2 364-570 R455K/C483A/C501A/C566A (Homo sapiens, UniProt Q99767); fluorescence polarisation; peptide; added: TAMRA-labelled APP peptide 50 nM).
`B5 (LAG3 cytoplasmic tail 475-525)`: binding “binds” (CD8A cytoplasmic tail 209-227, TAMRA label (Homo sapiens); confocal microscopy; phase separation, planar lipid bilayers).
`{SUMO}-SSITKDMKGFKVVEVGLAMNTKKQIGDFFKNLNMAK (NUP159 1425-1460 (Saccharomyces cerevisiae, UniProt P40477); SUMO = SUMO protein tag (N-terminal fusion); sequence looked up)` — result for binding: “binds” (NUP82 1-452 del172-176/D204A/F290A/Y295A/C396S (Saccharomyces cerevisiae, UniProt P40368); SEC).
`B6 (BAK1 26-225 F60A/H61A)`: binding “binds” (HAESA/IDA HAESA ectodomain; IDA 15-621, hydroxyproline in IDA (Arabidopsis thaliana); ITC; pH 5.0, 25 °C).
Under binding, `B7 (TNNC2)` is recorded as “binds” (Tnni3 29-192 (Mus musculus, UniProt P48787); SEC).
Under binding, `GDPGSEIIESVPPAGPEASESTTDENEDDIQFVSEGPLRPVLEYIDLVSSDDEEP (ZNF451 2-56 (Homo sapiens, UniProt Q9Y4E5))` is recorded as “binds” (SUMO2 15-93, isopeptide to RANGAP1 (Homo sapiens, UniProt P61956); crystal structure).
Under binding, `GYSEVNLSKLFAGCAVKS (POLA1 residues 1445-1462, GST fusion (Homo sapiens))` is recorded as “binds” (PRIM1/PRIM2 PRIM1 1-420, PRIM2 1-462 K72A/M73A (Homo sapiens); pull-down; peptide; 2 h, pH 7.0, 4 °C).
For `GHLSESSQVRWL (designed peptide)`, binding read “binds” (APBA1 PDZ-1 648-746 C654S/C742S (UniProt Q02410); ELISA; peptide; 1 hour).
For `RVENRRAFLKLRRQQQIERELNGYMEWISKAEEVILAEDETDVEQ (CACNA1A 369-413 (Oryctolagus cuniculus, UniProt P27884); sequence looked up)`, binding read “binds” (Cacnb2 17-416 M245A/L249A (Rattus norvegicus, UniProt Q8VGC3-2); pull-down).
